Measurements of several laboratories.
Numbers after ± are the reported error.

Under “adverse event Nausea”, `C[C@@H](c1nc(-c2ccc(C#N)cc2)cs1)[C@](O)(Cn1cncn1)c1cc(F)ccc1F` is recorded as 0% (healthy humans; oral, dose not given, with: ketoconazole).
`C[C@H]1CN(C(=O)CC#N)[C@]12CCN(c1ncnc3[nH]ccc13)C2`: “subjects with Fatigue” 0% (healthy human; oral, 3 mg single).
`CNS(=O)(=O)Cc1ccc2[nH]cc(CCN(C)C)c2c1` has a logP of 0.83 (octanol/buffer; pH 11, urokinase ligand set).
For `Cc1ccc(Sc2ccccc2N2CCNCC2)c(C)c1`, the diarrhoea incidence was 0% (healthy adult men; oral, 2.5 mg single dose, treatment-emergent adverse events).
With `[O]=[Co].[O]=[Co][O][Co]=[O]` the haematocrit was 47% (Crl:CD(SD) rat female, blood; oral, 220 mg Co/kg/day, 90 days, repeated dose).
Under “incidence of maculopapular rash”, `NC1(C(=O)N[C@@H](CCO)c2ccc(Cl)cc2)CCN(c2nc[nH]c3nccc2-3)CC1` is recorded as 14.3% (metastatic CRPC patients; 400 mg b.i.d., grade 3 to 4, treatment-related, with: enzalutamide 160 mg daily).
With `C=CC(=O)N(C)CCOc1c(N)ncnc1-c1cc(F)cc(NC(=O)c2ccc(C3CC3)cc2F)c1C` the AUC was 485 ng·h/mL (human, plasma; oral, 100 mg once daily, day 12).
`Cc1cc(-c2nccc3c2ccn3CC(=O)Nc2ccc(-c3cnccn3)cn2)ccn1` has an accumulation ratio of 1.32 (item: Cmax; human, plasma; oral, 5 mg once daily; relative to: day 16 over day 1).
`NS(=O)(=O)c1ccc(NN=C2C(=O)Nc3ccc4[nH]nnc4c32)cc1` has a logP of -0.62 (octanol/buffer, 40 mM buffer; pH 11).
With `[18F]c1ccc(-c2ccc3c(c2)[nH]c2ccncc23)cn1` the SUV was 1.05 ± 0.514 (microPET/CT imaging; APP/PS1 mouse, AD model, heart; intravenous, 15 min).
`CN[C@@H]1COc2c(S(=O)(=O)NC(=O)Nc3c4c(cc5c3CCC5)CCC4)cnn2C1` gave an ALT of 158 U/L (human; concentration not given, day 35).
Under “patients with immune-mediated AE”, `Cc1cc(-c2nnc(N)nc2-c2ccc(F)cc2)cc(Cl)n1` is recorded as 5.3% (item: hypothyroidism; IO-naive other solid tumour patients; oral, 100 mg once daily, treatment-related, grade 2).
For `CCN1/C(=C/C(C)=O)Sc2ccc(F)cc21`, “mean blood pressure” read 87 ± 4 mmHg (cynomolgus monkey; oral, 30 mg/kg, 2 h post-dose).
`Cn1nc([N+](=O)[O-])nc1Oc1ccccc1C(=O)N1CCOCC1` gave a logP of 0.45 (octanol/buffer; pH 11, known kinase inactives set).
`O=C(Nc1nc2cccc(-c3ccc(CN4CCS(=O)(=O)CC4)cc3)n2n1)C1CC1` — result for “treatment-emergent adverse events”: 0% (item: non-cardiac chest pain; human rheumatoid arthritis patients; oral, 200 mg once daily, 4 weeks, regardless of relatedness).
`CC(C)n1c(Nc2cccnc2)nc2cnc(Nc3ccc(N4CCN(C)CC4)cc3)nc21` — result for “subjects with adverse event”: 71.4% (item: investigations (SOC); healthy male subjects; oral, 100 mg, study, with: gemfibrozil).
`Cc1cc(C)c(CNC(=O)c2cc(Cl)c3c(c2C)O[C@@](C)([C@H]2CC[C@H](N(C)C)CC2)O3)c(=O)[nH]1` — result for “patients with grade ≥3 TEAE”: 4.2% (CTCAE v4.0, item: rash maculo-papular; human relapsed/refractory NHL; oral, 200 mg once daily, onset after cycle 1 day 1, overall treatment period).
`COc1ccccc1NC(=O)CSc1nnc(-c2ccc([N+](=O)[O-])cc2)n1-c1ccccc1` has a logP of 3.69 (octanol/buffer; pH 11, known kinase inactives set).
`Cl.[2H]C([2H])([2H])CC(=O)c1cnc(NC(=O)C2CC2)cc1Nc1cccc(-c2ncn(C([2H])([2H])[2H])n2)c1OC` has an AUC(0-24 h) of 1660 ng·h/mL (geometric mean; human; oral, 17.5 mg single dose, fasted, liquid).
For `C[C@H]1Oc2cc(cnc2N)-c2c(nn(C)c2C#N)CN(C)C(=O)c2ccc(F)cc21`, the dose-normalised AUClast was 49 ng·h/mL/mg (human patients, plasma; oral, dose not given, cycle 2 day 1, geometric mean, with: avelumab).
For `O=C(N/N=C/c1ccccc1O)c1ccncc1`, the stability was 99.2% (DMEM cell medium; 115 µM, 7 days, -80 °C, long-term storage).
`C=CC(=O)Nc1cc(Nc2nccc(-c3cn(C4CC4)c4ccccc34)n2)c(OC)cc1N(C)CCN(C)C` has an RDW-SD of 24.4 ± 0.474 fL (BALB/c nude mouse, LU0387 xenograft, blood; oral, 40 mg/kg).
`FC(F)(F)c1ccc(CNc2ccc(Cc3c[nH]c4ncc(Cl)cc34)cn2)cn1`: “adverse events, any” 6% (patients with advanced solid tumours; oral, dose not given, phase Ib, not related to compound).
`Cc1nc(C)c(-c2ccnc(Nc3ccc(Cl)cc3)n2)s1` has a logP of 4.23 (octanol/buffer; pH 11).
`CCO[C@H]1CCN(Cc2c(OC)cc(C)c3[nH]ccc23)[C@H](c2ccc(C(=O)O)cc2)C1` — result for “incidence reverse T3 increase”: 0% (PNH patients, active haemolysis; oral, 200 mg, treatment).
`O=C1c2ccccc2C(=O)N1CCCc1nc(-c2cccc([N+](=O)[O-])c2)no1` has a logP of 2.27 (octanol/buffer; pH 11, known kinase inactives set).
For `N[C@@H]1c2cccnc2[C@H](OC(=O)N2CCC(n3c(=O)[nH]c4ncccc43)CC2)CC[C@H]1c1cccc(F)c1F`, “decrease in bioavailability” read 31.5% (human; oral, fed state; relative to: fasted state).
The concentration of `O=S(=O)(c1ccc(-c2ccc3nccc(Nc4ccncn4)c3c2)cc1)N1CCOCC1` is reported as 0 ng/mL (female BALB/c mouse, plasma; intraperitoneal, 10 mg/kg, 24 h).
`CCn1cc(C(=O)N2CCOCC2)c(=O)c2cc(NC3Cc4ccccc4C3)cnc21` has an AUC(0-inf) of 27000 ng·h/mL (human, fasted, plasma; oral, 900 mg single dose, tablet, arithmetic mean).
With `CCO` the priapism incidence was 11.1% (human; concentration not given).
For `C[C@@H]1CCO[C@H]2Cn3cc(C(=O)NCc4ccc(F)cc4F)c(=O)c(O)c3C(=O)N12`, the drug concentration was 4600 ± 1100 ng/g (Tat- transgenic mouse, striatum; subcutaneous osmotic pump, dose not given, 5 d).
The logP of `O=C(O)CNC(=O)c1ncccc1O` is reported as -0.1 (shake-flask, potentiometric; 1-octanol/water).
`CNC(=O)c1ccc(-c2cnc3ncc(Cc4ccc5ncccc5c4)n3n2)cc1F`: “Diarrhoea dose reduction/interruption” 3% (Japanese patients; oral, 400 mg, any grade).
With `CCn1c(SCC(=O)Nc2ccccc2OC)nnc1-c1c[nH]c2ccccc12` the logP was 3.33 (octanol/buffer; pH 11, known kinase inactives set).
`O=C(O)c1cccc(C(=O)O)c1`: “apparent dissolution enthalpy” 4.43 kcal/mol (Bet/Gly deep eutectic solvent; 303.0 K).
`N#Cc1ccc2c(c1)[C@H]1CCCN(C(=O)c3ccc4[nH]cnc4c3)[C@H]1C2` gave an androstenedione level of 7.2 nmol/L (human, female; 240 mg, day 15).
`COc1ccc2c(=O)n(C)c(-c3ccccc3)nc2c1` gave a tissue/plasma ratio of 0.84 (Sprague-Dawley rat, male, lung; oral, 30 mg/kg, 0.5 h; relative to: lung over plasma).
`Cc1nc(-c2ccc(OCC(C)C)c(C#N)c2)sc1C(=O)O`: “geometric mean ratio Cmax” 101 (human, plasma; oral, 10 mg, with: verinurad 5 mg; relative to: test over reference).
`CCCCCCCCCOC(=O)CCCCCCCN(CCO)CCCCCCCC(=O)OC(CCCCCCCC)CCCCCCCC` gave a zeta potential of -0.07 mV (pH 7.5, formulated).
For `CNCc1ccc(-c2[nH]c3cc(F)cc4c3c2CCNC4=O)cc1`, “abdominal pain incidence” read 0% (patients; oral, 600 mg twice daily, grade 5).
For `Cc1c(C(=O)O)ccc2c3n(nc12)[C@@H]1[C@H](C3)N(CC2CC2)[C@@]2(C(=O)Nc3cc(Cl)ccc32)[C@H]1c1cccc(Cl)c1F`, the plasma concentration was 1000 nM (female BALB/c nude mice, SJSA-1 xenograft, plasma; oral, 1 mg/kg twice daily, 14 h).
`CC(C)C[C@H](NC(=O)[C@H](CC(C)C)NC(=O)C(C)(C)NC(=O)[C@@H](NC(=O)[C@H](CCC1CCCCC1)NC(=O)[C@@H]1CCCN1C(=O)c1ccc(F)cc1)[C@H](O)C(C)C)C(=O)NC(C)(C)C(=O)NC(C)(C)C(=O)NCCC(=O)N[C@@H](C)CN(C)C` gave an alpha-helix content of 87.2% (circular dichroism; phosphate buffer; pH 7.4, 20 °C).
For `CCN1CCN(Cc2ccc(NC(=O)c3ccc(C)c(NC(=O)c4cncc(-c5cccs5)c4)c3)cc2C(F)(F)F)CC1`, “mean plasma concentration” read 171 ng/mL (LC-MS/MS; C57BL/6 mouse, plasma; intraperitoneal, 30 mg/kg single dose, 6 h).
For `C[C@H](Oc1ccc(Br)cc1-c1ccon1)C(=O)O`, “accumulation ratio (AUC)” read 0.798 (human, plasma; 400 mg once daily, day 10; relative to: day 1).
`N[C@H]1C(O)O[C@H](CO)[C@@H](O)[C@@H]1O` (stereo partly shown) has an osmolality of 0 mOsmol/kg (aqueous solution; 1 mM, with: glucose).
For `Cc1cc(F)cc2c(CCC(=O)N[C@@H]3C(=O)NC[C@H]3O)c(-c3ccc(F)cc3)[nH]c12`, the AUC(0-12h) was 42900 ng·h/mL (APOL1 G2 mouse model; 30 mg/kg twice daily, day 6).

Repeated from above:
`Cl.[2H]C([2H])([2H])CC(=O)c1cnc(NC(=O)C2CC2)cc1Nc1cccc(-c2ncn(C([2H])([2H])[2H])n2)c1OC` has an AUC(0-24 h) of 1660 ng·h/mL (geometric mean; human; oral, 17.5 mg single dose, fasted, liquid).
For `C[C@H]1Oc2cc(cnc2N)-c2c(nn(C)c2C#N)CN(C)C(=O)c2ccc(F)cc21`, the dose-normalised AUClast was 49 ng·h/mL/mg (human patients, plasma; oral, dose not given, cycle 2 day 1, geometric mean, with: avelumab).
For `O=C(N/N=C/c1ccccc1O)c1ccncc1`, the stability was 99.2% (DMEM cell medium; 115 µM, 7 days, -80 °C, long-term storage).
`C=CC(=O)Nc1cc(Nc2nccc(-c3cn(C4CC4)c4ccccc34)n2)c(OC)cc1N(C)CCN(C)C` has an RDW-SD of 24.4 ± 0.474 fL (BALB/c nude mouse, LU0387 xenograft, blood; oral, 40 mg/kg).
`FC(F)(F)c1ccc(CNc2ccc(Cc3c[nH]c4ncc(Cl)cc34)cn2)cn1`: “adverse events, any” 6% (patients with advanced solid tumours; oral, dose not given, phase Ib, not related to compound).
`Cc1nc(C)c(-c2ccnc(Nc3ccc(Cl)cc3)n2)s1` has a logP of 4.23 (octanol/buffer; pH 11).
